# Results from different studies.
# Every numbered part comes from another study and shows a few of its results, in no order.

# Series 1
# Target: Hepatocyte nuclear factor 3-alpha (Foxa1, Mus musculus, UniProt P35582, residues 1-468, full length assumed)
# Chain of UniProt P35582 (whole entry, looked up): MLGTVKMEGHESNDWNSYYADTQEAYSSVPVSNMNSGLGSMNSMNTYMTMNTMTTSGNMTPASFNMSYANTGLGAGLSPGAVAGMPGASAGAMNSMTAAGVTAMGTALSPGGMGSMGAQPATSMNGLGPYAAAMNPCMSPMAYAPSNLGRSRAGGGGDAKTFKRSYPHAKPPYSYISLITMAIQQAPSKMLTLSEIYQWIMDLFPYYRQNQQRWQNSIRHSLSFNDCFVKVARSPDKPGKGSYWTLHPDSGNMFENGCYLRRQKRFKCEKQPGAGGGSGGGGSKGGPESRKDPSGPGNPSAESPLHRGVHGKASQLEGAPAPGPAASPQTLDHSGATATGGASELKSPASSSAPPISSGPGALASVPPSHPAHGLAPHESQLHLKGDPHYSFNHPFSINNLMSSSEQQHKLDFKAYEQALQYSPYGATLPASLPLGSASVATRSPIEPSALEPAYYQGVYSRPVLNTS
# Method: EMSA with sequencing
# Form: double-stranded DNA, one strand shown
# Sample: in vitro
# Tested at: 10 and 20 nM
# Notes: whole designed probe, mean of two concentrations, ends assumed
# Relative to: negative control set to 0
# Direction: higher = stronger binding
# Constant ends, left off below: GTGAGCGGTGCCCATTGATGGGGAAC … TTTCACTGGGATCGTGGGGAC
Strand,normalised bound fraction [ratio]
AACATATAACTCTTTGTTTCAGGGATTATTTGATCAGCCTGTTGGCCAGTGGTATTATGGCCACTGAATTTTTTAAAAATGCAAAATGTACATGTTTACTTAGTTGTTCTTACACTTTGCTCCATGCCTTCCAACAATTTCTTCTTTAGTTGTTTCTTTTCTTATTTTGTGGAAACTTGAAATTTAATGAGGA,0.46
ACCAAATCTGAAAATAAGTTAATCCTTTCTGTGTGTTTGCTGCAATTAAACTATTTTCACAAACAATTTATACTGCTCTAAAGGTCTATGTTTGTTTACATAGGAAGTGTTTATTTTTCCAAGAAAGTAAATTTATTGATTTTCTCATATGTCTCACAGACGCAAAGAAAAAAAAAAGGTTTCTTGAATGGTA,0.565
ATCTTCCCCCTCTTCCTTGCCCCACCAGCTCACCTTCCCGGGTTATTTGCAGATAGGAAAATAAATAAAGCCGGCATTCGTTAATTCTCCCGTCGCGCAAACTGCTGTTTGCTCTGGATGAATCATGGTCCTTTGGCGACGCCAGGCTCCGGGAGAGCAAAGCACCGTGTCAGGGCCATGATCCGGGGTGGCC,0.364
TCTGGACAACATGTCTAGTGTAAACTTTCCTCTAAATAATAAATTTGTAGTTCAGCAACAAGCTAGACATCTCTGGGTAACATTTCCACCTTCTTGTTTACATTGTATGTCCAGCCTTTGGAAAAGCGTTTGGTAAAATATAAACTGGTTGGAAAAAAAATTAAAATATCACCAACACTATTTTTAAAAGAGA,0.484
TAGGCTTCTCGAGTAGAGAAACAAATGACAAATGGCTAAAATGGGTCACCACACACAAATCATGGTTTCATTATAGCATATTTCAAATGTTCTTATTTGCTCACAATTCTACTACTTCCACTAGACACTAATCTTTTCCAAACAAGGCCTTTTTTGTTACTAATGAATCCCTCTTCCTTTCCCCATTGATCAC,0.106
CACGCGGAGAGGCCACCTGCCCGGGCCAATCTGTACGCTCCGTGATCTTCGCCCGCTCCCCGGCCCCGCGCCCTGGTGTCCCTGCAGTCGCTGAGTAAACAGCGACTGGGAGCCATCTTGGGGCGGAGGACCGATCCCAAGCGAAGTAGTAGTGGCTGCAGCCCGGGTGCCCCCATTCGTAAAGGGGAGCCTC,0.325
ATCTTCCCCCTCTTCCTTGCCCCACCAGCTCACCTTCCCGGGTTATTTGCAGATAGGAAAATAAATAAAGCCGGCATTCGTTAACCCTCTTCTGGCGCAAACTGCTGTTTGCTCTGGATGAATCATGGTCCTTTGGCGACGCCAGGCTCCGGGAGAGCAAAGCACCGTGGGTCCCGAGAATCGGCTGGTGGCC,0.337
TTAACTTAGGTAATTGAATATTTAATTTATTGATATTCTTAAAATGTTTCTTTCCAAACAGACTACTTTTTTTCAGTTTGATCTTCTTTCAAATGTAAACATGCAGTTTTTTTGTTTCTGAATTTTTATATTAATTGCAGTTTATTAATCAATATTGATAAGCATTTCATGGGTATCAAGACCATTTGATTTG,0.367

# Series 2
# Target: Ras GTPase-activating protein-binding protein 1, full length (G3BP1, Homo sapiens, UniProt Q13283)
# Chain of UniProt Q13283 (whole entry, looked up): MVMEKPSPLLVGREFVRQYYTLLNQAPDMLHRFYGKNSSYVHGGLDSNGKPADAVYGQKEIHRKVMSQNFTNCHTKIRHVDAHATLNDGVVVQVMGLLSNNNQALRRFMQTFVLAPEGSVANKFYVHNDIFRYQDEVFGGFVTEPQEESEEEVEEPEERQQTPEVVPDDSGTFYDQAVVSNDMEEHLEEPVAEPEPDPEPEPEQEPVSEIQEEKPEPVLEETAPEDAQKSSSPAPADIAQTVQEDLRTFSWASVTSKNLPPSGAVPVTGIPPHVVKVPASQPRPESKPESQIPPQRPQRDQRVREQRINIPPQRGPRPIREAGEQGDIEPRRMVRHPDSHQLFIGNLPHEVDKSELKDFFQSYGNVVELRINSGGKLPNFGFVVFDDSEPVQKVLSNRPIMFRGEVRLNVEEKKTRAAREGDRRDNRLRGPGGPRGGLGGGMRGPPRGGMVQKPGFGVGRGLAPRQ
# Method: RNA Bind-n-Seq
# Form: RNA
# Sample: in vitro
# Tested at: 200 nM
# Notes: whole 134-nt RNA, ends assumed
# With: 150 mM LiCl
# Relative to: input library
# Direction: higher = stronger binding
# All molecules: 7-deaza-guanosine replaces G
# Constant ends, left off below: GGGAGUUCUACAGUCCGACGAUC … UGGAAUUCUCGGGUGUCAAGG
Strand,log2 enrichment
CAAGUCCUGUGCUACACAUCGUAUGUACCGAAUCGGGUUUGGGGUUUGGUUUGGGGAAAGUAUUAUGUUACGCCGUUCGGAUCUGCACUU,-1.01
UCCUGUGCUACACAUCGUAUGUACCGAAUCGGGGUUUGGGGAAAGGGGAAAAAAAGGGGAAAGUAUUAUGUUACGCCGUUCGGAUCUGCA,-0.0829
UUUCCAGCAGUACCAGCUCCAGCCAGGAUCACCCUCUCUACUCUGGGCACCCAUCCCUUCCACUAAGUGGUGCUAUUGCUGCUUUUGCCU,1.1
AGUCCUGUGCUACACAUCGUAUGUACCGAAUCGGGUUUUUGGGUUUUUUUGGGAGGGAAAGUAUUAUGUUACGCCGUUCGGAUCUGCACU,0.137
UGGGAGGUGGAUUUUGUUUAUUUUUUUAGCUCAUUUCCAGGGGUGGGAAUCUUUUUUUAAUAUGUGUCAUGAAUAAAGUUGUUUUUGAAA,-0.353
AGUCCUGUGCUACACAUCGUAUGUACCGAAUCGGGUUUUGGUUUUGGGGUUUUGGGGAAAGUAUUAUGUUACGCCGUUCGGAUCUGCACU,0.0653
CAAGUCCUGUGCUACACAUCGUAUGUACCGAAUCGGGAAAGGGAAAGGGAAAGGGGAAAGUAUUAUGUUACGCCGUUCGGAUCUGCACUU,-0.527
UAGCUAAACUAAUGUCAACUUAUUUCCUUUUUUCCUUUAGCCACCAUCAAAGAACAGACGAGAGAGAACAGAACUGAAGCCUGAUUUCUU,-0.378
UGGGUGAAGAGGGACAGUUACCUUCCUGUGGGCAGUCAUAAUCUCAAGGCGGCCGCCAAGGCCAAGCUAGGCUAUGAUCCCGUGGAGCUA,-0.978
AGUCCUGUGCUACACAUCGUAUGUACCGAAUCGGAAAAAGGAAAAAGGAAAAAAAGGAAAGUAUUAUGUUACGCCGUUCGGAUCUGCACU,-1.39
GCAGGAAGUAAAAACAAAUGGAAAUGCUUCGGAUAGUGGCAGGGGUGGGGGUUGCUAAGGAAAGGGUGGGAUGGGGGUGGGUAAAGAGUU,-0.0312

# Series 3
# Target: RNA binding protein fox-1 homolog 2, RRM domain, GST-SBP tag (RBFOX2, Homo sapiens, UniProt O43251-10, residues 100-194)
# Method: RNA Bind-n-Seq
# Form: RNA
# Sample: in vitro
# Tested at: 365 nM
# Notes: natural RNA segment, single round, ends assumed
# Relative to: no-protein control
# Direction: higher = stronger binding
# Constant ends, left off below: GGGAGUUCUACAGUCCGACGAUC … UGGAAUUCUCGGGUGCCAA
# Residues (chain): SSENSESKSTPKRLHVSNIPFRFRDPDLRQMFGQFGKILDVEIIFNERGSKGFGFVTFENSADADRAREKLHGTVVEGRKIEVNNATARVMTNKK
Strand,RBNS enrichment (R)
ACUGUGAGGGUGGGCCCUGAGGAGACCUGUGGGCCACCUAUUGUCUAAUAAAGUGGGCAGUUGCCCCAUCUGGUGGCUUUCCUUAGGGGUGAGGGGUCUUGUUGGGUCCC,0.484
CGGUAUUCAAGUGGUUCACAGAGAACAGCAGUUAGUUCCUGGUUCUGAGAACCACUUGUCCCAGUAUGACACCUCUUACUAUCUCAGCAGCCUGUGCAGGGUCUCUGUCC,0.296
AGAUGGAGGAGCCCUACCUGCAAGGAUCCAAAGAGGAGGGCACUCCCCUCAAACUCAAGUGUGAGCUCUGUGGACGGGUGGACUUUGCCUACAAGUUCAAGCGUUCCAAG,0.312
AAGUGUACACACACACACCACACACCACACACACCCCACUGGCAGUCUUUGUGGAUUAGGAUGGGGGUGACAUAAUUUUCUUGAGUUUAACAGGAGUGCUUUACCCAAGU,0.732
UGUGUAGCUAGACUGUUAACCUACGAUUGUAAACUAGCUGUAAGGAUUUCCCAGUGAAAUCAGAUUUGGAAAGAAAAGAGAGAUAGUUCUCCGGGAUGCAUAGAUUCAUG,0.979
AGCGGGGCAGCCCAGGAGGUCUCAUACCCCACCCGUAAUCUGUACAGACUGAGAGGCCAGUUGAUCUGCUCUGUUUUAUACCAGUAGCAAUAAAGAUUAUUUUUUGAUAC,0.495
AAUUAUAUUGAAAUGCUGCCCUAGAAGUACAAUAGGAAGGCUAAAUAAUAAUAACCUGUUUUCUGGUUGUUGUUGGGGCAUGAGCUUGUGUAUACACUGCUUGCAUAAAC,0.538
UUGCAAGUCUAACCUCUGAACAUAAAUUUGGUCAAAUAAUUGGAACAAAGGGAAACAGAUACUUGAUAUGAAAGCCAUAAUGACGGUGACUUGUGUCGUGGGGGAAAACA,0.528
CCCAGCCUGGAGCCACACCUUCUGAGGCCCCAGCCCAGACUCAUGACGCGGAGGGCAGACAGGCCGCCUGGGCCUACCAGAGCCCACUGGGACGGCAGGAAGGUGGGAUG,0.536
UACGUAGGCGAUAUAUGUAAGUGUUCUGAUAACAUGACUCUAAUGGUGUUUAAGUGUUCUGAUAACCUGCUUUUAAUAGUUGUGUAUGCCAAAGUCUUUCCCAGCACCUC,0.292
UUCUGAGGCCAUCUGCAGAAAGUCCCCUGUGCCUUCUUUGGGAAGUCUCUUGUCAAUCCACAAGAACAAUGCAAAGUUAUGUUUGGGAACACUACAGGAAUAUGUAAUUG,0.234
UGUAAAGCUGAGCCUACAGACCUGUCCUCACCAACUGUUUUGUGAUUUCUACUCAACUACAAAGAUUUAUUUAAUGUACUCUUAAUCUAACUGAGUUUUGUUACCAAUGA,0.648

# Series 4
# Target: Histone acetyltransferase KAT6A, both winged helices, GST fusion (KAT6A, Homo sapiens, UniProt Q92794, residues 1-181)
# Method: protein binding microarray
# Form: double-stranded DNA, one strand shown
# Sample: in vitro
# Tested at: not given
# Notes: 8-mer, flanks averaged, mean of 2 arrays, mostly near background
# Relative to: not given
# Direction: higher = stronger binding
# Construct (chain): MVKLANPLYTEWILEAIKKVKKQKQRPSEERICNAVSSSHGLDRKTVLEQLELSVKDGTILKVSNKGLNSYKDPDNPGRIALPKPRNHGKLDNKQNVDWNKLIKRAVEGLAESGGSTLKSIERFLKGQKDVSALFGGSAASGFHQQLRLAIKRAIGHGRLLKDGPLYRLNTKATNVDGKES
Strand,E-score
ACCTTATA,-0.165
CGTATTAA,0.0406
ACATAATA,-0.112
GCTAAACA,-0.0396
ATTCATTC,-0.0614
AATGGCCT,-0.146
TCCGTTAA,0.21
CATAAACA,0.048
AGTTTGTC,-0.11
AACGGGGC,0.134
AACATATC,0.0428
GTGTAGCA,-0.0794
CTTCAACC,-0.0838
AAGTACCC,-0.0617
GCGTACAA,0.124
CCCTGATA,-0.294
ACTCCACC,-0.211
ATGGGTCC,-0.0626
ATCACAAG,-0.0528
AACATTCT,-0.131
CCTCCGCC,0.105
